Measured values pooled from the literature.
Parts stem from different laboratories: compare values within a part only.

Block 1
Target: Protein C-ets-1 (ETS1, Homo sapiens, UniProt P14921, residues 1-441, Y397A, full length assumed)
Method: protein-binding microarray
Molecule type: double-stranded DNA, one strand shown
Matrix: in vitro
Concentration: not given
Setting: k-mer, scored over probes, only values ≥0.25
Reading: higher = stronger binding
Construct (chain): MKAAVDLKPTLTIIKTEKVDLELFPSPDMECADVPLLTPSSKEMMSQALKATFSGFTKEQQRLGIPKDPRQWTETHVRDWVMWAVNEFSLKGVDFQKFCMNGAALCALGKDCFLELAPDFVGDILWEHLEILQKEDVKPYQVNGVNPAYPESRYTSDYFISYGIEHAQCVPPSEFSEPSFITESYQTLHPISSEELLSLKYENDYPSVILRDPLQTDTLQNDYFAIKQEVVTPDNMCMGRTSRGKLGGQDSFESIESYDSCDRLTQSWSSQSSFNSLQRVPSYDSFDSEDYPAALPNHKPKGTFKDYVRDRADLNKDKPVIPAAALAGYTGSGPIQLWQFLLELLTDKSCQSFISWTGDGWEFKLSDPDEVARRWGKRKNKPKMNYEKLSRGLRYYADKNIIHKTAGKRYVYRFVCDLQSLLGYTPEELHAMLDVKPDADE
With `ACGCCAAA` the E-score was 0.3.
For `GTTTACGA`, the E-score was 0.258.
`CTTTTGCC` has an E-score of 0.32.
`ATTGGCAA` has an E-score of 0.4.
`ATGATACA` gave an E-score of 0.25.
The E-score of `ACGTCAAC` is reported as 0.27.
With `GGCAAACA` the E-score was 0.303.
The E-score of `GTACTACA` is reported as 0.263.
`AGTGTTTG` has an E-score of 0.3.
`AAAGGCAA` gave an E-score of 0.264.
For `GGATGTAA`, the E-score was 0.357.
The E-score of `GTGGCAAA` is reported as 0.364.
`CGACGTGC` has an E-score of 0.256.
With `GGGTGGGA` the E-score was 0.302.
`GTAACACA` gave an E-score of 0.275.
The E-score of `CGTTTGTA` is reported as 0.264.
For `ACCGCAAA`, the E-score was 0.321.
The E-score of `GACAACTC` is reported as 0.294.
With `AAATTGGC` the E-score was 0.32.
`CAGTTGCA` has an E-score of 0.334.
`TGACATAA` has an E-score of 0.331.
For `GCCGCGGC`, the E-score was 0.333.

Block 2
Target: RNA binding protein fox-1 homolog 2, RRM domain, GST-SBP tag (RBFOX2, Homo sapiens, UniProt O43251-10, residues 100-194)
Method: RNA Bind-n-Seq
Molecule type: RNA
Matrix: in vitro
Concentration: 365 nM
Setting: natural RNA segment, single round, ends assumed
Baseline: no-protein control
Reading: higher = stronger binding
Under “RBNS enrichment (R)”, `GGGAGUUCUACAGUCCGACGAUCAAAGCCCUUAAUAAAUAUUUUACAUCCUUUCUAAUGACAAUGAAUGGAAUUAAUCACUCAACAGGUAUAGUAUUACGACUCAUGUUUACUUUUUAAAAUGAUUUAGACCGUGGAAUUCUCGGGUGCCAA` is recorded as 0.509.
`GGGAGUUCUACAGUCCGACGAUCAACCAUGGACACAGAGACCUUAGGGGCUGGGCUUCUCUCCGCACAUGGAGAACAGGAGCCGGGCCCUGGGAUCCUUCUGUUCUGUUAAACAGAACAGAACAGCCUUUGCAUGGAAUUCUCGGGUGCCAA`: “RBNS enrichment (R)” 0.66.
For `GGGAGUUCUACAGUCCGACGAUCAUACAUUUAAAAAAAUACUACUUUUUAAAUGGUAGUUUUAAAAUAACAGUAUCUUACUUGUUGCCAUUGAAAAAAGAAUCCAACUUUUCACUUUCAAAAAUGGCUAUAUAUGGAAUUCUCGGGUGCCAA`, “RBNS enrichment (R)” read 0.516.
`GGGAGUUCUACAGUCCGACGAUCAAACUUGUUAGCUUCGAUGAAGUCACUUCAUCUUCUCUCCUGCCUUAUUUUUUUAAAUAAGUUUUUAGGUCCUGACACUGACAUCAAAUACAUGCACACCAGAAAGGCAUUGGAAUUCUCGGGUGCCAA`: “RBNS enrichment (R)” 0.485.
For `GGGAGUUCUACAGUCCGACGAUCUCUCUUUUAGAAAGAAAAUGAUAUAUAGGGUAAGCGGAAUUUGGGAGCCACGGCCCCAGUAAGUAAUUUUCCAAGUUGAUAGGCUCGUGAAAGCUGAACAUUACCGAUAAUGGAAUUCUCGGGUGCCAA`, “RBNS enrichment (R)” read 0.428.
For `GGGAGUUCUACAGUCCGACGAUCUUUGAAAGUUUCCAUUUUUUAAAGUUACCCUCGUUUUCAAAGGUAUUUUCUAAACAGAUCUUUAAUGGACUAUUUAAACCGAAUUUAAGGAAUUCACACACGACAGUUGAUGGAAUUCUCGGGUGCCAA`, “RBNS enrichment (R)” read 0.715.
For `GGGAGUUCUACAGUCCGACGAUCAAGCAAUACCAUACUCAUUUCUAUGUUCCUGUUCCUUCCUCUGCUCCUCCUUUGGAGAAGCAAUAAUUCAUGGGGGAUGAUACAGUAGCACUUUACAAAUGGCUCCAUGUUGGAAUUCUCGGGUGCCAA`, “RBNS enrichment (R)” read 0.377.
`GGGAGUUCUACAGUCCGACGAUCAGCUGCUCUCAGGCACCCCCUUCUUCAUUGCUCUCUCCAGAAAGGGUUGCUAGCCUUAACUUCAGCUGGUGCAAAACAUCUGACUGUAGCCGAACUUCAGCCAUCAGAUCUGGAAUUCUCGGGUGCCAA`: “RBNS enrichment (R)” 0.444.
Under “RBNS enrichment (R)”, `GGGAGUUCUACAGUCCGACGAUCAGACUUGGCUGCCCUCUGAUGUGGGUGCUUCUGCCCCUUCCCUGUUCUAACUGUCCGACAGGCUCCCAGUCUCUGUGUGUCCAGGCCAGAGGACCAGCACUCAGGAGAGUUGGAAUUCUCGGGUGCCAA` is recorded as 0.56.
`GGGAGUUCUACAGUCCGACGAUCUUUCUAUGUAUAAUGUUUUAUACACUUUUUAACUGGUUGCACUACCCAUGAGGAAUUCGUGGAAUGGCUACUGCUGACUAACAUGAUGCACAUAACCAAAUGGGGGCCAAUGGAAUUCUCGGGUGCCAA` — result for “RBNS enrichment (R)”: 0.516.
Under “RBNS enrichment (R)”, `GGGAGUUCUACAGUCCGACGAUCUGUGCUUGUGUUAUCUUAGCAUUUAUCUUCAAACCAGCAUCUCACUAUUUAUUGACAGUGGUGUGUGUGUGUGUGUGUGUGUGUUUCUGCGUGUGCACAUAUGUGUGCACUGGAAUUCUCGGGUGCCAA` is recorded as 0.46.
Under “RBNS enrichment (R)”, `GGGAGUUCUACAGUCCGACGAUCUUUUUAAAUUUUUUUACAAAAGGUUUUUAAACAGAUUAGGGUAGGUGAUGGUUUAAAUCAAUUAAGUGGCAUUGGAAACCUAGGGUUUCCUUUUGAUUAAGAGCCUUUUUUGGAAUUCUCGGGUGCCAA` is recorded as 0.568.

Block 3
Target: Ras GTPase-activating protein-binding protein 1, full length (G3BP1, Homo sapiens, UniProt Q13283)
UniProt Q13283, sequence (whole entry, looked up): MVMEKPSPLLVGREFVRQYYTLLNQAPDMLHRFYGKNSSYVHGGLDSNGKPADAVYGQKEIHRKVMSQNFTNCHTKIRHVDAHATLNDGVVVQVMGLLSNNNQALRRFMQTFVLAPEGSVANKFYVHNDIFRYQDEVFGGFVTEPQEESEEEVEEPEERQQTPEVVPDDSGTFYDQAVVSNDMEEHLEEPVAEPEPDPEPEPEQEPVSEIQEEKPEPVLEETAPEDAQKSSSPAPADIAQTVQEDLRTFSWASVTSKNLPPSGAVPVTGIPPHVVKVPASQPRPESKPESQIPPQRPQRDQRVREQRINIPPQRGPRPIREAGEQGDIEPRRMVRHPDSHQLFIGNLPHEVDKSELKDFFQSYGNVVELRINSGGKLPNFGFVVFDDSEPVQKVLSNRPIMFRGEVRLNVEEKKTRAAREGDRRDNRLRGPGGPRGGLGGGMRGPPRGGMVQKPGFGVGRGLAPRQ
Method: RNA Bind-n-Seq
Molecule type: RNA
Matrix: in vitro
Concentration: 200 nM
Setting: whole 134-nt RNA, ends assumed
With: 150 mM KCl
Baseline: input library
Reading: higher = stronger binding
`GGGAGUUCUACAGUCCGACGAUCUCCUGUGCUACACAUCGUAUGUACCGAAUCGGGGCCCCCCGGCCCCCCGGGCCCCCCGGGAAAGUAUUAUGUUACGCCGUUCGGAUCUGCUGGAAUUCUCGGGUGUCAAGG` has a log2 enrichment of 0.00851.
For `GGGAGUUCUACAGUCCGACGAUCAAGUCCUGUGCUACACAUCGUAUGUACCGAAUCGGUUUUGGUUUUGGGGUUUUGGGAAAGUAUUAUGUUACGCCGUUCGGAUCUGCACUUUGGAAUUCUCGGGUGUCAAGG`, the log2 enrichment was -1.01.
`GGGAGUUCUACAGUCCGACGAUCCCUGUGCUACACAUCGUAUGUACCGAAUCGGGAAAAAGGGUUUUUUUGGGUUUUUUUGGGAAAGUAUUAUGUUACGCCGUUCGGAUCUGCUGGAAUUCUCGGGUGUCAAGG` has a log2 enrichment of -1.04.
For `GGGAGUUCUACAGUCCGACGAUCGUCCUGUGCUACACAUCGUAUGUACCGAAUCGGGAAAAAGGGAAAAAGGGGAAAAAGGAAAGUAUUAUGUUACGCCGUUCGGAUCUGCACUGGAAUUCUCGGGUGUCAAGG`, the log2 enrichment was -0.506.
With `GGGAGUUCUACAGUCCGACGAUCAGUCCUGUGCUACACAUCGUAUGUACCGAAUCGGGGUGGGGAAAAAAAGGGGAGGGGAAAGUAUUAUGUUACGCCGUUCGGAUCUGCACUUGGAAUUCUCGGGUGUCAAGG` the log2 enrichment was 0.754.
`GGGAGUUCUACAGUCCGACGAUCCAAGUCCUGUGCUACACAUCGUAUGUACCGAAUCGGGAAAAAGGGUUUGGGUGGGAAAGUAUUAUGUUACGCCGUUCGGAUCUGCACUUCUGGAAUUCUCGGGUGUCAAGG` has a log2 enrichment of 1.
`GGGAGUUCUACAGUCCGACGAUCUGUGCUACACAUCGUAUGUACCGAAUCGGGCCCCCCCGGGGCCCCCCCGGGCCCCCCCGGGGAAAGUAUUAUGUUACGCCGUUCGGAUCUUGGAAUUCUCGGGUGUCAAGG` has a log2 enrichment of -2.
For `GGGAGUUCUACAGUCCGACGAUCCAAGUCCUGUGCUACACAUCGUAUGUACCGAAUCGGGAAAAAGGGAGGGUUUGGGAAAGUAUUAUGUUACGCCGUUCGGAUCUGCACUUCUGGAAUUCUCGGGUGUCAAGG`, the log2 enrichment was 0.639.
The log2 enrichment of `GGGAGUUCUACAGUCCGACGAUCACAGAGGGUUUGGUGGACGUUAUUCUCUAUCAUCAACCCGAUGACAAAAAGAAGAAUCGGGGGUUCUGCUUCCUUGAAUAUGAGGAUCACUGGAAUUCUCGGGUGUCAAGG` is reported as -1.29.
With `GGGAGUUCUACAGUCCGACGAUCAAGUCCUGUGCUACACAUCGUAUGUACCGAAUCGGAGGUUUUUUUGGUUUUUUUGGAAAGUAUUAUGUUACGCCGUUCGGAUCUGCACUUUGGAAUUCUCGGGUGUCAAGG` the log2 enrichment was -1.37.

Block 4
Target: Sal-like protein 4, full length isoform B (SALL4, Homo sapiens, UniProt Q9UJQ4-2, residues 1-616)
Method: universal PBM
Molecule type: double-stranded DNA, one strand shown
Matrix: in vitro
Concentration: not given
Setting: 8-mer, flanks averaged, mean of replicates
Reading: higher = stronger binding
The E-score of `CTCGTATC` is reported as 0.0391.
With `GCGTTAAC` the E-score was 0.0369.
With `GCTGTGAA` the E-score was 0.0138.
With `CTTCCCGA` the E-score was -0.145.
`ACTATGAG` has an E-score of 0.0871.
`CTTTATAC` gave an E-score of 0.24.
`AATTTTTA` has an E-score of 0.417.
`AGGTCAAA` gave an E-score of 0.0174.
`ACCGGGAC` has an E-score of -0.296.
With `AGCGCGCC` the E-score was -0.343.
`CATTGAGA` gave an E-score of 0.0814.
`AACCCTCA` gave an E-score of -0.00535.
For `AGTGTGTC`, the E-score was -0.028.
With `GATCCCGA` the E-score was -0.218.
`TCGCTAGA` has an E-score of -0.0851.
With `ATCCCCAT` the E-score was -0.0901.
`AAAATTAA` gave an E-score of 0.373.
With `ACCCATCA` the E-score was -0.0112.
`CCAATCGG` has an E-score of -0.191.
The E-score of `CCAGCCCG` is reported as -0.387.
With `AAACTACG` the E-score was 0.0199.
`GGAGTCCC` gave an E-score of -0.374.
`GCAACACC` gave an E-score of -0.107.
The E-score of `AATGAAGA` is reported as 0.158.
For `GAGCTGTA`, the E-score was -0.0469.

Repeated from above (block 1):
`TGACATAA` has an E-score of 0.331.
For `GGATGTAA`, the E-score was 0.357.
The E-score of `GTGGCAAA` is reported as 0.364.
`ATTGGCAA` has an E-score of 0.4.
